# Measured values from different studies.
# A part holds a random share of what one study measured. “And” joins repeats or separate records; there may be more than shown.
# Chain of UniProt P11229 (whole entry, looked up): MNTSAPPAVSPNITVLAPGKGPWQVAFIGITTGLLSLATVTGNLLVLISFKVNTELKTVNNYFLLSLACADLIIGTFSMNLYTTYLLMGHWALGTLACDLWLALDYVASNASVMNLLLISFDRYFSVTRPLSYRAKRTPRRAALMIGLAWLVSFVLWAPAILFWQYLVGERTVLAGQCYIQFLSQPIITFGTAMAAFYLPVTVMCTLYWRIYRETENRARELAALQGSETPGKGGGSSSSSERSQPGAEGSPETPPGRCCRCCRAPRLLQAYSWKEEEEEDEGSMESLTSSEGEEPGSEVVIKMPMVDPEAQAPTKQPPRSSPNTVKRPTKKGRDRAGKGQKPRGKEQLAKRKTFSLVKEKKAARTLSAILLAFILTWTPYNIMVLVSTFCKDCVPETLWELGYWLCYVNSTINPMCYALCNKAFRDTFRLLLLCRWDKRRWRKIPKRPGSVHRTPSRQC
# Chain of UniProt P20309 (whole entry, looked up): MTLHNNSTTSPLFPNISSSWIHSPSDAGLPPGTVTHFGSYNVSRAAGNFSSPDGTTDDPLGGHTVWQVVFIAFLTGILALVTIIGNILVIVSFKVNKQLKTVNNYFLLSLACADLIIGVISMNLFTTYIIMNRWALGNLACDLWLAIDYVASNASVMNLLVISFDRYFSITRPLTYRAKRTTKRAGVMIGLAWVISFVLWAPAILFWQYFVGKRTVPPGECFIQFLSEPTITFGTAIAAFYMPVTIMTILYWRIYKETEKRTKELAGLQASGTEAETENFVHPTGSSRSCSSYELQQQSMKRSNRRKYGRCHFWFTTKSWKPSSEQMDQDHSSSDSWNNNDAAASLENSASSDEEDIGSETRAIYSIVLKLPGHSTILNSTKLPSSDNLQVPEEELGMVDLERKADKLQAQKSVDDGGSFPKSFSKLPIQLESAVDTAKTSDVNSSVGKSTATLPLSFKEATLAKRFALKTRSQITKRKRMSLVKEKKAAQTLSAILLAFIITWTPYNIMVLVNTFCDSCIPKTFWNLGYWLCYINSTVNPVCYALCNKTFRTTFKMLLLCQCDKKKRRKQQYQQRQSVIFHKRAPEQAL
# Chain of UniProt P23975 (whole entry, looked up): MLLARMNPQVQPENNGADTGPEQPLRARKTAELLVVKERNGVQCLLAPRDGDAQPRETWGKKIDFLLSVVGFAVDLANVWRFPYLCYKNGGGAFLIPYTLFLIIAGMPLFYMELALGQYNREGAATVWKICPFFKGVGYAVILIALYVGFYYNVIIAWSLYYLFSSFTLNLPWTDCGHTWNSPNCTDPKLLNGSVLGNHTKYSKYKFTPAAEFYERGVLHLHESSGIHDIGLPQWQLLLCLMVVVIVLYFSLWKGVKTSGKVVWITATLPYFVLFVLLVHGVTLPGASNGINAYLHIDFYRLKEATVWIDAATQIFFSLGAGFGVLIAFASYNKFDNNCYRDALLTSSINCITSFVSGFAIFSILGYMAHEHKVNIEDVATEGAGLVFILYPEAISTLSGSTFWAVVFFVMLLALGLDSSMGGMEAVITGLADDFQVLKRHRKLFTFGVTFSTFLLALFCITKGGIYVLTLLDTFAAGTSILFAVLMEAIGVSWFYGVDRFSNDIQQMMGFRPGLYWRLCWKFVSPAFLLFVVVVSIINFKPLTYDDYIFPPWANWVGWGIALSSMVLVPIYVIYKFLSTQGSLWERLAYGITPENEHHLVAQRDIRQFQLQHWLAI
# Chain of UniProt Q01959 (whole entry, looked up): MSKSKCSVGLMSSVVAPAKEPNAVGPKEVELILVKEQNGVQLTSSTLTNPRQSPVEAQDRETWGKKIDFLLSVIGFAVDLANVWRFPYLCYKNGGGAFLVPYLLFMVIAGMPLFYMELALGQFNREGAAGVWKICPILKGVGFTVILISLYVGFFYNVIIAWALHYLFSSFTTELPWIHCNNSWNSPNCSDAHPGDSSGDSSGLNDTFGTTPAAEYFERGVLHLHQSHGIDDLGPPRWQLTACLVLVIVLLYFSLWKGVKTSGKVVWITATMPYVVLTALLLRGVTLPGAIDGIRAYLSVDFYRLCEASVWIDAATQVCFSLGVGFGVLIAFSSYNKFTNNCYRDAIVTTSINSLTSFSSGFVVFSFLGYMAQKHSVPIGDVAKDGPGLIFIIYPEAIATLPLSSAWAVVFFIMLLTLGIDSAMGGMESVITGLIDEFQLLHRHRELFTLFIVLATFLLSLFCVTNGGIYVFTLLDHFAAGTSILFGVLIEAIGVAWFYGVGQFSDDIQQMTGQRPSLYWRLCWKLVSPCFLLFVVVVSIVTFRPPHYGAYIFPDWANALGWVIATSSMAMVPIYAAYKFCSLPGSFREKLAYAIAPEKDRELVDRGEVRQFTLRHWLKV
# Chain of UniProt P41145 (whole entry, looked up): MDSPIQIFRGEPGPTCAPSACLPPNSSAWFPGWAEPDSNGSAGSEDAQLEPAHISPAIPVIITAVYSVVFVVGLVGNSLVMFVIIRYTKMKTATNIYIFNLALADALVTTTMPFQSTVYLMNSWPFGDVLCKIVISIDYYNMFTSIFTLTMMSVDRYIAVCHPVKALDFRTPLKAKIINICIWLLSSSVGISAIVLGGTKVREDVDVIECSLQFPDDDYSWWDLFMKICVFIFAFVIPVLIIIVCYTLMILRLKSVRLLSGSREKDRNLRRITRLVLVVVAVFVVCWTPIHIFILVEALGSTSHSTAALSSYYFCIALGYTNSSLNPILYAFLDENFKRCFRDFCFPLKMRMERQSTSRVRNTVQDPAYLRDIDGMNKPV

# Block 1
# Structure (SMILES): CCS(=O)(=O)c1cc2cc(C[C@](O)(CC(C)(C)c3ccc(F)cc3C(N)=O)C(F)(F)F)[nH]c2cn1
# Concentration: 10 µM
target,observed,inhibition [%]
"CHRM1 (Homo sapiens, UniProt P11229)",ligand displacement,-22.7
"CHRM3 (Homo sapiens, UniProt P20309)",ligand displacement,-21.7
"OPRK1 (Homo sapiens, UniProt P41145)",ligand displacement,23.4
"SLC6A2 (Homo sapiens, UniProt P23975)",cell-free assay,-20.6
"SLC6A3 (Homo sapiens, UniProt Q01959)",cell-free assay,-8.67

# Block 2
# Organism: Sarcocystis neurona
# Observed: parasite growth
# Concentration: 10 µM
# Notes: second screen
# Reference: untreated
Compound,log2 fold change
CNC(=O)Oc1ccc2c(c1)[C@]1(C)CCN(C)[C@@H]1N2C.CNC(=O)Oc1ccc2c(c1)[C@]1(C)CCN(C)[C@@H]1N2C.O=S(=O)(O)O,0.69
CN1CC[C@@]23CCCC[C@@H]2[C@@H]1Cc1ccc(O)cc13.O=C(O)C(O)C(O)C(=O)O,0.47
Cl.Oc1cc2c(cc1O)[C@H]1c3ccccc3CN[C@@H]1CC2,0.75
CN(C)C(=O)Oc1ccc[n+](C)c1.[Br-],0.00201

# Block 3
# Target: Calcium/calmodulin-dependent protein kinase type II subunit alpha (CAMK2A, Homo sapiens, UniProt Q9UQM7)
# Chain of UniProt Q9UQM7 (whole entry, looked up): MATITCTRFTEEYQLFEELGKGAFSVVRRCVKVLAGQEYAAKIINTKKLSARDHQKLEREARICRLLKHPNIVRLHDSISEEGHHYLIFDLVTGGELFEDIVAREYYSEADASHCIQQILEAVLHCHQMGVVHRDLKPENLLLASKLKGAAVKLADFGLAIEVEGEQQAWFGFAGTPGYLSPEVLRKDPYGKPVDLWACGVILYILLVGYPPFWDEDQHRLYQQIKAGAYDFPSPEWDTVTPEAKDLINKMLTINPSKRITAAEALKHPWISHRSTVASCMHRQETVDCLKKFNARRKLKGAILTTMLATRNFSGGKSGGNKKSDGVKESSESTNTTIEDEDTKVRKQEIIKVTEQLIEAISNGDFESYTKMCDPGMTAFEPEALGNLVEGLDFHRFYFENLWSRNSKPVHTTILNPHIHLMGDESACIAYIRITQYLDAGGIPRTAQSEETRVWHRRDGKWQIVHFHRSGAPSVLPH
# Observed: enzyme activity
# Mode: inhibitor
# Concentration: 10 µM
Structure (SMILES),inhibition
C=C1[C@@H]2CC[C@H]3[C@]4(C)C[C@H](O[C@@H]5O[C@H](CO)[C@@H](OS(=O)(=O)O)[C@H](OS(=O)(=O)O)[C@H]5OC(=O)CC(C)C)CC(C(=O)O)(C(=O)O)[C@H]4CC[C@]3(C2)[C@H]1O,-7%
C[C@H]1CCC/C=C/[C@@H]2C[C@H](O)C[C@H]2[C@H](O)/C=C/C(=O)O1,18%
CN1CCCC(=C(c2cccs2)c2cccs2)C1,2%

# Block 4
# Cell line: mouse MPNST tumor cells
# Method: high-content immunofluorescence imaging
# Item: nuclear SOX9
# Concentration: 10 µM
# Time: 12 h
# Notes: mean of 2 replicates
# Reference: DMSO control
# Direction: higher = more nuclear SOX9
Compound,nuclear SOX9 intensity
CC(=O)Nc1cc([As](=O)(O)O)ccc1O,105 % of DMSO
O=c1[nH]c2ccccc2n1CCCN1CCC(n2c(=O)[nH]c3cc(Cl)ccc32)CC1,104 % of DMSO
Fc1ccc(C(OCCN2CCN(CCCc3ccccc3)CC2)c2ccc(F)cc2)cc1,150 % of DMSO and 132 % of DMSO
